Measured values pooled from the literature.
Parts stem from different laboratories: compare values within a part only.
Sequence of UniProt Q52WX2 (whole entry, looked up): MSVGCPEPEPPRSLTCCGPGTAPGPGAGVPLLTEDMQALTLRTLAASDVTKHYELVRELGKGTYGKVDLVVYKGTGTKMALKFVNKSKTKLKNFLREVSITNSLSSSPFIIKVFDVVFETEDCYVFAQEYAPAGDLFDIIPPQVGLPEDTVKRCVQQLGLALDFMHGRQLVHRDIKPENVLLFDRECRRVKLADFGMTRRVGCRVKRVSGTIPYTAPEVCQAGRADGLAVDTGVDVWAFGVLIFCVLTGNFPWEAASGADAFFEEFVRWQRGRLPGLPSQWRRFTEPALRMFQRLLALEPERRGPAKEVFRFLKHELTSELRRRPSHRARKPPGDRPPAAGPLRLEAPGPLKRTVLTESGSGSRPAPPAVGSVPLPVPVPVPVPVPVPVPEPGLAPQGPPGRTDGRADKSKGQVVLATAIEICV
Sequence of UniProt Q8TDC3 (whole entry, looked up): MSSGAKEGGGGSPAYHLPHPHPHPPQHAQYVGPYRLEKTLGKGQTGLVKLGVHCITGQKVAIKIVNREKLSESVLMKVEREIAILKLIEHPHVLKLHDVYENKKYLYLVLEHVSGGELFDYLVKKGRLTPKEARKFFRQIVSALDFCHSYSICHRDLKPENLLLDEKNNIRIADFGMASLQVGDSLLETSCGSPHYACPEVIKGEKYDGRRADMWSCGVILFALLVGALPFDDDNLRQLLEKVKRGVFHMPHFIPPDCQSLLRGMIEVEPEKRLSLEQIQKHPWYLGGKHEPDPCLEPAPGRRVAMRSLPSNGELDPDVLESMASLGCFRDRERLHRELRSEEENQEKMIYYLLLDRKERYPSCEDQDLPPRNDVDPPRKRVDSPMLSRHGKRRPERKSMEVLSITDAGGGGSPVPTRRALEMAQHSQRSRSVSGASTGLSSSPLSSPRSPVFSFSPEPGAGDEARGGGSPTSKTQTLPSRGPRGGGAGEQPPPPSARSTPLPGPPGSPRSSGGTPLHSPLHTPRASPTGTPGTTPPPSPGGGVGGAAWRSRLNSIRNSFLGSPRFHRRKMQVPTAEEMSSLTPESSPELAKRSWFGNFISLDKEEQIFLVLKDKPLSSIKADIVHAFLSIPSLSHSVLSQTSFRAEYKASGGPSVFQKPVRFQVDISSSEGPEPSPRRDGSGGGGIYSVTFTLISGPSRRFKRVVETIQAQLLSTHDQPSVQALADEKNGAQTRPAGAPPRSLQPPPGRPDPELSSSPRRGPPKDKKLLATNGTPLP
Sequence of UniProt P42685 (whole entry, looked up): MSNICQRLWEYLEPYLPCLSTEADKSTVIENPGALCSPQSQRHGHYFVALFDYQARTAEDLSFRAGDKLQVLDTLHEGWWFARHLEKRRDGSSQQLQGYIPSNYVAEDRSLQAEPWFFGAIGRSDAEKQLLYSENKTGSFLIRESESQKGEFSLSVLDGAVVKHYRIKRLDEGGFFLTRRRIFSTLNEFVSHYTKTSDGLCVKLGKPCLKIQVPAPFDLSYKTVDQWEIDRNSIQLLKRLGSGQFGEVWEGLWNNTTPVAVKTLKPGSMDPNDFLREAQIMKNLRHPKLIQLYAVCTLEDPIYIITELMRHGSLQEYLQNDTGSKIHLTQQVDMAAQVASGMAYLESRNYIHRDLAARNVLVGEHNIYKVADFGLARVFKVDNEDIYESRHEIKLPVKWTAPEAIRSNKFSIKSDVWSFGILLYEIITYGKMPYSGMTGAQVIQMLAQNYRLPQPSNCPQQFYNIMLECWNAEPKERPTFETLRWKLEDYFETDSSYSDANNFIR
Sequence of UniProt O75582 (whole entry, looked up): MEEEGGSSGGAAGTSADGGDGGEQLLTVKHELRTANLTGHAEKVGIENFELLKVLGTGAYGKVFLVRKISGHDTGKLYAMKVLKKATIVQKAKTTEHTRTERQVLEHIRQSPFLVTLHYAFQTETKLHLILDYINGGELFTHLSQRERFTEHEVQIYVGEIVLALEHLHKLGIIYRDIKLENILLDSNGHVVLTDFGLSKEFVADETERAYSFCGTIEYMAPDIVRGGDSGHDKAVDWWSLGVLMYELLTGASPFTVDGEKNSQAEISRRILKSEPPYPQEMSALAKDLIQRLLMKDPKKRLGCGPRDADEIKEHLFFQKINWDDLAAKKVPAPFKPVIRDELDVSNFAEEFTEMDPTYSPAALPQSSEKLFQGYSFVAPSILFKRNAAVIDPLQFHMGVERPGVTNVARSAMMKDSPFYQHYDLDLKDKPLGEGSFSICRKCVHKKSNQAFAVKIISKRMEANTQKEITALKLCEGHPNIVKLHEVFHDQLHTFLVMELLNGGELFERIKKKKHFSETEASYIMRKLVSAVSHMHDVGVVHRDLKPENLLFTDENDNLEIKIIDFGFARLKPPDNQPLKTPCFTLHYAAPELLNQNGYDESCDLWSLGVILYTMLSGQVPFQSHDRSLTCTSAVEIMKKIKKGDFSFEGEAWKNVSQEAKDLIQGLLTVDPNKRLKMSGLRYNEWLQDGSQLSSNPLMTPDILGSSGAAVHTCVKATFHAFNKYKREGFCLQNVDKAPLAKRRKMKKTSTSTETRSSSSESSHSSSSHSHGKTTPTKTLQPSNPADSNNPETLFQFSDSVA

Sample 1 — cell line: mouse MPNST tumor cells; method: high-content immunofluorescence imaging; item: nuclear SOX9; tested at: 10 µM; time: 12 h; setting: mean of 2 replicates; relative to: DMSO control; reading: higher = more nuclear SOX9
For `CCN(CC)CCCC(C)Nc1c2ccc(Cl)cc2nc2ccc(OC)cc12` (centres unmarked), “nuclear SOX9 intensity” read 255 % of DMSO.
For `C[C@H]1COc2c(N3CCN(C)CC3)c(F)cc3c(=O)c(C(=O)O)cn1c23`, “nuclear SOX9 intensity” read 93 % of DMSO.
`COC(=O)N/N=C/c1c[n+]([O-])c2ccccc2[n+]1[O-]`: “nuclear SOX9 intensity” 99.2 % of DMSO.
For `CN1CCN(c2c(F)cc3c(=O)c(C(=O)O)cn4c3c2SCC4)CC1`, “nuclear SOX9 intensity” read 110 % of DMSO.
`CC1Nc2ccc(Cl)cc2S(=O)(=O)N1` (centres unmarked) — result for “nuclear SOX9 intensity”: 96.8 % of DMSO.
`CCC(C)CNCC(=O)N1CCc2sccc2C1COc1cccc(C)c1` (centres unmarked) — result for “nuclear SOX9 intensity”: 201 % of DMSO.

Sample 2 — read-out: cell-free assay; method: competition with immobilised ligand; tested at: 1 µM
SMILES: O=C(NCc1ncc(C(F)(F)F)cc1Cl)c1ccc2c(c1)C1(CCS(=O)(=O)CC1)[C@@H](C1CC1)N2S(=O)(=O)c1ccc(F)cc1
It gave 93% for remaining binding (STK35 (Homo sapiens, UniProt Q8TDR2)).
NEK6 (Homo sapiens, UniProt Q9HC98) — remaining binding: 95%.
SBK1 (Homo sapiens, UniProt Q52WX2) — remaining binding: 92%.
BRSK1 (Homo sapiens, UniProt Q8TDC3) — remaining binding: 100%.
It gave 87% for remaining binding (STK17B (Homo sapiens, UniProt O94768)).
For FRK (Homo sapiens, UniProt P42685): remaining binding read 99%.
For IKBKE (Homo sapiens, UniProt Q14164): remaining binding read 82%.
For MAPKAPK5 (Homo sapiens, UniProt Q8IW41): remaining binding read 100%.
For MAP2K7 (Homo sapiens, UniProt O14733): remaining binding read 79%.
The remaining binding was 0% (MAP3K13 (Homo sapiens, UniProt O43283)).
It gave 100% for remaining binding (FLT3 (Homo sapiens, UniProt P36888, D835Y)).
Ribosomal protein S6 kinase alpha-5, C-terminal kinase domain (RPS6KA5, Homo sapiens, UniProt O75582) — remaining binding: 97%.
PRKD3 (Homo sapiens, UniProt O94806) — remaining binding: 100%.

Sample 3 — read-out: enzyme activity; mode: inhibitor; tested at: 77 µM; relative to: untreated
Target: DNA polymerase theta, ATPase domain (POLQ, Homo sapiens, UniProt O75417)
Sequence of UniProt O75417 (whole entry, unmodified, looked up): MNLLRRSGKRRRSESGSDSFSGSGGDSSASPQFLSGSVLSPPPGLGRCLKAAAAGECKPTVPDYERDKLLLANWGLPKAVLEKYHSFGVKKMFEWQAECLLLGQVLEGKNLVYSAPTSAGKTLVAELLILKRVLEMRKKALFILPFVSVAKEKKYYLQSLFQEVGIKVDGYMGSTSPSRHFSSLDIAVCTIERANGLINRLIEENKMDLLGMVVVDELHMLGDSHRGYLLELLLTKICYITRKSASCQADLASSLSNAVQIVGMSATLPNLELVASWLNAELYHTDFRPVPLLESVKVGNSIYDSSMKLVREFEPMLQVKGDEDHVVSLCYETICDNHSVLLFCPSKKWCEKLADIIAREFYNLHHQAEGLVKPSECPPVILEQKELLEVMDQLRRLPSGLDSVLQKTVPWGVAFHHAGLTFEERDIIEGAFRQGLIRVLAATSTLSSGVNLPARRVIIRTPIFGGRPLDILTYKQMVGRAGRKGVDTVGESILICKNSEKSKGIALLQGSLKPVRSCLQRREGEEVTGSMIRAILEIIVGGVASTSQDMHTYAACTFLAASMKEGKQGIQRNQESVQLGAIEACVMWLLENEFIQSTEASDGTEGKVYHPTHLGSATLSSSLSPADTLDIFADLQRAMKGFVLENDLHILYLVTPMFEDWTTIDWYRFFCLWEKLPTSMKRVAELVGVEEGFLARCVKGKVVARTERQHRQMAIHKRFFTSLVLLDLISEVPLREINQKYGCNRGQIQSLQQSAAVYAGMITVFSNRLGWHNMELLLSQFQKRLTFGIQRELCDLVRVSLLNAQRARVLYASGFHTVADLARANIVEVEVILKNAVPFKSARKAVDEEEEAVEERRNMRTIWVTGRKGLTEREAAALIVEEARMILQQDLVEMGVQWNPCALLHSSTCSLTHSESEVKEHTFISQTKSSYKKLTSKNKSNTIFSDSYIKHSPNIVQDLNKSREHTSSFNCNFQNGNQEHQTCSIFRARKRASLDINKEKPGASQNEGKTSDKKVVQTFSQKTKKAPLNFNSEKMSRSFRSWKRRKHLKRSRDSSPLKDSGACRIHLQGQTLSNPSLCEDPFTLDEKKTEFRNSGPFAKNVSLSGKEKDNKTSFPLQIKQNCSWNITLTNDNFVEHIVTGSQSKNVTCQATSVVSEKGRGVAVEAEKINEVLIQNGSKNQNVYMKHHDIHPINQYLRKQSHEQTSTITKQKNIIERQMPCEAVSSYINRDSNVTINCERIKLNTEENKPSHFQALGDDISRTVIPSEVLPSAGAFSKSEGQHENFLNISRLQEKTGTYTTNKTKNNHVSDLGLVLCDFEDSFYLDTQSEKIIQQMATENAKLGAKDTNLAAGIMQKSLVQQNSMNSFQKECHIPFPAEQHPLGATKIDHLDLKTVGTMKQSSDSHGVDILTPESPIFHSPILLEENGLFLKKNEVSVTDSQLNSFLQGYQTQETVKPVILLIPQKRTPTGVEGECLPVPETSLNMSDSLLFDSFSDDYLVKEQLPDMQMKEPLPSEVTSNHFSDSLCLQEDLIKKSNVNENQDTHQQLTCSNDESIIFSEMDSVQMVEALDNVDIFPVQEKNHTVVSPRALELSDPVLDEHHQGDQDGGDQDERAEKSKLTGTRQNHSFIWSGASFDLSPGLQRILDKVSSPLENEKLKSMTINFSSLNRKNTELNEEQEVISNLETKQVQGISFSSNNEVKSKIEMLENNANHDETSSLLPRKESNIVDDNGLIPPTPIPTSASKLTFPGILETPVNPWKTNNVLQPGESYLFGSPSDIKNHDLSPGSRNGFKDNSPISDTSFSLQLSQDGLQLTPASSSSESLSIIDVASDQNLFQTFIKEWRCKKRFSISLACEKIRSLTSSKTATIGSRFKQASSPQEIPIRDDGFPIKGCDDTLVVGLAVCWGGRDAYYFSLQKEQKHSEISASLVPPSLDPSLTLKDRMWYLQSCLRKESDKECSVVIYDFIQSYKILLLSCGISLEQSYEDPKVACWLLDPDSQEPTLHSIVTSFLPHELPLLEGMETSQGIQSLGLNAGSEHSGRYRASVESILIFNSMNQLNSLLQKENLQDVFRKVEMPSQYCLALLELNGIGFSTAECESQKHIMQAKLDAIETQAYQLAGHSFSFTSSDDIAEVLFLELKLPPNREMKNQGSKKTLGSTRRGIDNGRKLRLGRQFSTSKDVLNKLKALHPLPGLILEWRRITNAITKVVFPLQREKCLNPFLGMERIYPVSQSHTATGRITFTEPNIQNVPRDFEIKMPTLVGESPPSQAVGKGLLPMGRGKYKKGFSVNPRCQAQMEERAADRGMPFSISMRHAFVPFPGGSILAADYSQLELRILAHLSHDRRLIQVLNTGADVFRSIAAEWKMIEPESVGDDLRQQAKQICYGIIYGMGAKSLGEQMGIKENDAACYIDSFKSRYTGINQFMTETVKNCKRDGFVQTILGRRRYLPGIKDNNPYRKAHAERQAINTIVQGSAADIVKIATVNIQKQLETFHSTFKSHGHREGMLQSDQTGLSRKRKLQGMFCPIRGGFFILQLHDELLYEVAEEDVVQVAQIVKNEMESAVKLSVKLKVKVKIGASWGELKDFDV
For `C=CC(=O)Nc1ccc2ncnc(Nc3cccc(Br)c3)c2c1`, the remaining activity was 114%.
For `CCOC(=O)C1=C(COCCN)NC(C)=C(C(=O)OC)C1c1ccccc1Cl` (centres unmarked), the remaining activity was 96.4%.
`COCCc1ccc(OCC(O)CNC(C)C)cc1` (centres unmarked) has a remaining activity of 101%.
For `Nc1ccc(C(=O)O)c(O)c1`, the remaining activity was 95.6%.
For `N#Cc1cnc2cnc(NCc3cccnc3)cc2c1Nc1ccc(F)c(Cl)c1`, the remaining activity was 101%.
`CCCCN(CC)c1nc(C)nc2c1c(C)cn2-c1c(C)cc(C)cc1C` gave a remaining activity of 95.9%.

Sample 4 — read-out: binding; tested at: 1 µM
SMILES: COc1ccc2[nH]c3c4[nH]c5ccc(OC)cc5c4c4c(c3c2c1)C(=O)NC4=O
MAP3K6 (Homo sapiens, UniProt O95382) — remaining binding: 86%.
It gave 83% for remaining binding (MAP3K5 (Homo sapiens, UniProt Q99683)).
The remaining binding was 88% (EPHA6 (Homo sapiens, UniProt Q9UF33); competition with immobilised ligand).
The remaining binding was 59% (NTRK2 (Homo sapiens, UniProt Q16620); competition with immobilised ligand).
It gave 93% for remaining binding (MST1R (Homo sapiens, UniProt Q04912)).
The remaining binding was 5.8% (Ribosomal protein S6 kinase alpha-6, N-terminal kinase domain (RPS6KA6, Homo sapiens, UniProt Q9UK32); competition with immobilised ligand).
For CDK17 (Homo sapiens, UniProt Q00537); competition with immobilised ligand: remaining binding read 72%.

Some of these lines once more (sample 2):
For FRK (Homo sapiens, UniProt P42685): remaining binding read 99%.
It gave 100% for remaining binding (FLT3 (Homo sapiens, UniProt P36888, D835Y)).
For MAPKAPK5 (Homo sapiens, UniProt Q8IW41): remaining binding read 100%.
